Measured values gathered from unrelated publications.
Parts stem from different laboratories: compare values within a part only. Substitutions count along the parent as printed.

Block 1
Target: RNA binding protein fox-1 homolog 2, RRM domain, GST-SBP tag (RBFOX2, Homo sapiens, UniProt O43251-10, residues 100-194)
Technique: RNA Bind-n-Seq
Molecule type: RNA
Medium: in vitro
Tested at: 365 nM
Notes: natural RNA segment, single round, ends assumed
Reference: no-protein control
Reading: higher = stronger binding
Target sequence (chain): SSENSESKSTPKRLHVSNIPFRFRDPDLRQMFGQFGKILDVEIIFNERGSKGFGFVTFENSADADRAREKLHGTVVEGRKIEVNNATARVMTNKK
`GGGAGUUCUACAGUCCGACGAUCCUGGUAUCUGUCUGGUAGCAGUGAGACCCCUUGUCUUGGUGAUCCUUACUGGGUUUCCAAGCAGAGGAGUCACAUGAUUACAAUUGCCAGUAGAGUUGUUGUUUGGGGUAUGGAAUUCUCGGGUGCCAA` — result for “RBNS enrichment (R)”: 0.259.
Under “RBNS enrichment (R)”, `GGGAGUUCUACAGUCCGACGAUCUACUGAAACAUUGUGCCAAGAAACUCUGUGGGAUUUGUGUCCCUUAAACCAGACUCACUUUUCUGAAAAAUCUCCAUUGUUGAGGAGAGGCUGCUCAAUCGACACCCCGAUGGAAUUCUCGGGUGCCAA` is recorded as 0.441.
`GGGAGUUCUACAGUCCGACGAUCAUUGCUCCAGGAUCUGGUAUACUGUUCUCAUAAAACUGAGAGGAGAAAAAAAGUGAAAGAAAGCAGCUGCUUUAAGAAUGGUUUUCCACCUUUUCCCCCUAAUCUCUACCUGGAAUUCUCGGGUGCCAA` — result for “RBNS enrichment (R)”: 0.963.
`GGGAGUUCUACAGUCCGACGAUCCGCUACCACCUGUUUUCAAGAGAACAUAGAACUCCAACGUAACCGUCAUUUCAAAGAUUUACUGUAUGUAUAGUUGAUUUUGUGGACUGAAUUUAAUGCUUCCAAAUGUUUGGAAUUCUCGGGUGCCAA`: “RBNS enrichment (R)” 0.764.
`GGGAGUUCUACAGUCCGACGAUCUGGAGCUUUUAUACACUACAUUUCUUUUUUAUUAUUAUGAAGAAUGGGAUACCUCCAGGUUCCAGUAAAAUUCUUCUGACCGAAACCAAUGUGGGUGUUAGAAAAAUUACUGGAAUUCUCGGGUGCCAA` — result for “RBNS enrichment (R)”: 0.57.
`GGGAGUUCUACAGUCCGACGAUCGAGUUCCUUCACGCACUUGGUUCACCACCAUCACUCUUGAGUUUUGGACAAAAGAGGUGGGUAUGCCAGGCACAGUGGCUCACGCCUGUGAUCCCAGCACUUUGGGAGGCUGGAAUUCUCGGGUGCCAA`: “RBNS enrichment (R)” 0.218.
For `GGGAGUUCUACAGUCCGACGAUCAUGAUCUGAACAAAAGCUUUUUGAAUUGUAUAAGAUUUAUGUCUACUGUAAACAUUGCUUAAUUUUUUUGCUCUUGAUUUAAAAAAAAGUUUUGUUGAAAGCGCUAUUGAUGGAAUUCUCGGGUGCCAA`, “RBNS enrichment (R)” read 0.782.
`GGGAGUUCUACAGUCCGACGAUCAGGCCGUGAUCACAUAUUCUACAGUCCAAAAGAGGGCCCGGAGCUCAGCAAUUACUCACGCCGUCACAUGUGCCCACAGUAGCGGGCUCCGCGGCGUGGCUCCUGCUGCCUGGAAUUCUCGGGUGCCAA`: “RBNS enrichment (R)” 0.249.

Block 2
Target: ABI1, truncated, D143A, DHFR fusion (Arabidopsis thaliana, UniProt P49597)
Technique: DHFR PCA, dose-response
Medium: yeast
Notes: Hill fit, not affinity
Together with: (+)-ABA, dose series
Reading: lower = more sensitive
Starting sequence: PYL1, truncated, DHFR fusion (Arabidopsis thaliana, UniProt Q8VZS8); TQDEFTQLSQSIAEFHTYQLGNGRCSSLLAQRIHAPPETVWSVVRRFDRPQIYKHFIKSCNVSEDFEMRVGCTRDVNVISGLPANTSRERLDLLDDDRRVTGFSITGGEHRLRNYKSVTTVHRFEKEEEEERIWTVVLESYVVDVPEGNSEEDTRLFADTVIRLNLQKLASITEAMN
With `E131G` the ABA EC50 was 2.03 µM.
`A84Y` gave an ABA EC50 of 2.11 µM.
With `N85M` the ABA EC50 was 20.4 µM.
The ABA EC50 of `L20T` is reported as 4.06 µM.
`S87Y` has an ABA EC50 of 1.56 µM.
`T106L` has an ABA EC50 of 5.02 µM.
The ABA EC50 of `C72A` is reported as 1.07 µM.
The ABA EC50 of `L169T` is reported as 1170 µM.

Other studies, line by line
OGT: UDP-N-acetylglucosamine--peptide N-acetylglucosaminyltransferase 110 kDa subunit (OGT, Homo sapiens, UniProt O15294)
UniProt O15294, sequence (whole entry, looked up): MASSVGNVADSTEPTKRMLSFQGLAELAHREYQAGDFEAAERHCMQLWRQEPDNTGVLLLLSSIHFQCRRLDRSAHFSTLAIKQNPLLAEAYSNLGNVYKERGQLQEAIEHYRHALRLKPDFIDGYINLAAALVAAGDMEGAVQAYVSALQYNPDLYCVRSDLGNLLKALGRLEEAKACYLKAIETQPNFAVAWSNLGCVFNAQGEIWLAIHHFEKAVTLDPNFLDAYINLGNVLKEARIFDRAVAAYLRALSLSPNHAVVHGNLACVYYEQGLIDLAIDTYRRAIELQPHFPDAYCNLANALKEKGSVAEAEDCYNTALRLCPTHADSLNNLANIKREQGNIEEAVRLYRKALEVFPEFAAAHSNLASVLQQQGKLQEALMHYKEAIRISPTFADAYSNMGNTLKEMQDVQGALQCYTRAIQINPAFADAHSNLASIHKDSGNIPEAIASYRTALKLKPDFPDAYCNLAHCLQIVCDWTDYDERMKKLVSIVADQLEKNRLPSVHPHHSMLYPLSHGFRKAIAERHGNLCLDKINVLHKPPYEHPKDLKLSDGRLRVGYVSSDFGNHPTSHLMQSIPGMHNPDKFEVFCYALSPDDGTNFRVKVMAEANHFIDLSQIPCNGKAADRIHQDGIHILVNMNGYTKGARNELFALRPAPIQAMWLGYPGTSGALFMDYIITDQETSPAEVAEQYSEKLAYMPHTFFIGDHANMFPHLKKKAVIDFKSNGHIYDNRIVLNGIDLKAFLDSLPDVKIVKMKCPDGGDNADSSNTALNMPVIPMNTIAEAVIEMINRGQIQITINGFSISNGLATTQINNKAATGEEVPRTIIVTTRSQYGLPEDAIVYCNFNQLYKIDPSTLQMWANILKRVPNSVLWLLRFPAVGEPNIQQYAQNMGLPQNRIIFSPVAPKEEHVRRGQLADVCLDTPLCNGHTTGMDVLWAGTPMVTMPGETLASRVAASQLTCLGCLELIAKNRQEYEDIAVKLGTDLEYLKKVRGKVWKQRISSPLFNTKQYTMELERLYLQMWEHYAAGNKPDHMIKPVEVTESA
CCND1: CCND1, cyclin fold, Cln2 fusion (human)
P1: viral docking peptide; YKVKRRLVFGADD; partner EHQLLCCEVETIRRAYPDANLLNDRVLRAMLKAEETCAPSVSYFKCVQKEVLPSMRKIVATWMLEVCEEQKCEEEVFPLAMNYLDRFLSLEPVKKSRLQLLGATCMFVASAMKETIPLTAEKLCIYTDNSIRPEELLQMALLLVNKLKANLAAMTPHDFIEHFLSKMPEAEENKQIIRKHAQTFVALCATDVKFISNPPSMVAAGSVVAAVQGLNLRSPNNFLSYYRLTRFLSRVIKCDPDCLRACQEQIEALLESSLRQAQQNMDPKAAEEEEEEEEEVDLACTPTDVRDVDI
`QQGFAPQYQILIEWE` — result for “enrichment fold change”: 9.66 (OGT; binding, phage display NGS; peptide; concentration not given, normalized abundance; reference: input library).
`P1 L7T` — result for “normalised enrichment score”: -0.0455 (CCND1; yeast growth competition, sequencing; yeast; strong parent motif; reference: not given, higher = stronger binding).
For `SMAWHHPHGYHWPQA`, “enrichment fold change” read 5 (OGT; binding, phage display NGS; peptide; concentration not given, normalized abundance; reference: input library).
`P1 F9G`: “normalised enrichment score” 0.124 (CCND1; yeast growth competition, sequencing; yeast; strong parent motif; reference: not given, higher = stronger binding).

A few entries again (block 2):
`A84Y` gave an ABA EC50 of 2.11 µM.
With `N85M` the ABA EC50 was 20.4 µM.
The ABA EC50 of `L20T` is reported as 4.06 µM.
